Experimental data gathered from unrelated publications.
A part holds a random share of what one study measured. Substitutions count along the parent as printed.

Series 1 — technique: protein-binding microarray; form: double-stranded DNA, one strand shown; medium: in vitro; concentration: 2540 nM top; setting: 60-bp whole probe; added: salmon DNA 0.4 mg/ml; baseline: random background probes; direction: higher = stronger binding; constant ends, left off below: GCCTAGCAC … GTCTTGATTCGCTTGACGCTGCTG
Target: Interferon regulatory factor 3, full length, phosphomimetic (IRF3, Homo sapiens, UniProt Q14653, residues 1-427, S386D/S396D/S398D/S402D/T404D/S405D)
Construct (chain): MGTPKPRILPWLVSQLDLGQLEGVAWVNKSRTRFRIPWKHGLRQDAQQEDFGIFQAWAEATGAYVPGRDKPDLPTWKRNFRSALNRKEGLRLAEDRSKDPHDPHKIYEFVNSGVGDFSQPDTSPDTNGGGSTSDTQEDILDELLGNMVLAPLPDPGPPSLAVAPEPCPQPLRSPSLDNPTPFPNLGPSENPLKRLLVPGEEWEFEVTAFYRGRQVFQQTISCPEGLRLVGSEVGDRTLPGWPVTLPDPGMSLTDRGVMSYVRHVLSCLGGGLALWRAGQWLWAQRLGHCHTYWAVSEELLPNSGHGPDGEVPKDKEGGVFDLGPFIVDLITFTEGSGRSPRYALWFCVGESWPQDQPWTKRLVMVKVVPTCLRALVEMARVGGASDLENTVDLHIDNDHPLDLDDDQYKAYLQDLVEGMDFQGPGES
Strand	fitted relative affinity
GACGATTTCGGGACTGGAGCCGTGCTA	1.74 z-score
GACGGAGTGGGTCTCGGGACGTGCTAG	-0.839 z-score
TTAGGTTTCGAACTGGGTTAGTGCTAG	2.78 z-score
GACGGTATCCTTATCCTGTCGTGCTAG	5.98 z-score
GACGATTTCAGTTTCGAGAGGTGCTAG	3.96 z-score
GACGGACGGGACTTTCGGGACGTGCTA	0.0407 z-score
CTAGGACTGGACACTGGGTTAGTGCTA	-0.819 z-score
GAGATGATCCAGTTTTACCTGGTGCTA	0.282 z-score
TTAGGTTTCGAGACTGGGTTAGTGCTA	3.09 z-score
TTTGGTTTCCTTCTCCTTTAGTGCTAG	10.6 z-score
TTAGACCTCAGTTTCGATTAGTGCTAG	2.75 z-score
GACGGTCTCCTTTTCCTCACGTGCTAG	4.9 z-score
TCATTTTCACTTTTCCTACTGTGCTAG	5.01 z-score
TTAGGTATCGGTCTCGGCTAGTGCTAG	4.21 z-score
TCAGTTTCCATTTTCTGACTGTGCTAG	10.7 z-score
TCATTTTTGTATTTTTGACTGTGCTAG	1.51 z-score
TTAGAACTGAGACTGTATTAGTGCTAG	-0.41 z-score
CTGTTTCCATCTCTCAAAAGGTGCTAG	9.58 z-score
CTAGTTTTTACTTTCTGAATGTGCTAG	3.38 z-score
TTAGATTTCAGTATCGCTTAGTGCTAG	2.43 z-score
TTAGAACCGGGGTATCGATTAGTGCTA	-0.182 z-score
TCAGTTTTCTGGTTCCCACTGTGCTAG	1.83 z-score

Series 2 — technique: RNA Bind-n-Seq; form: RNA; medium: in vitro; concentration: 365 nM; baseline: no-protein control; direction: higher = stronger binding
Target: RNA binding protein fox-1 homolog 2, RRM domain, GST-SBP tag (RBFOX2, Homo sapiens, UniProt O43251-10, residues 100-194)
Setting: natural RNA segment, single round, ends assumed
Construct (chain): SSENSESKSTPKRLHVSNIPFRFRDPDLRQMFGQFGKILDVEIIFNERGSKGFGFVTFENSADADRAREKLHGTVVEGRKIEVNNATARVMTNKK
Strand	RBNS enrichment (R)
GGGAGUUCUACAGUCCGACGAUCAAGAGUUGAUGGAGACCCAGGGAUUGGACACCAUCUCCCAACCCCAGUACUCCUGCUCUCCGGUGCCACCUCACCUUCUUUGGCUUCUUCCCUCUUGCCUCCUUCUGUUCUGGAAUUCUCGGGUGCCAA	0.844
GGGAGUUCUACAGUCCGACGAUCAUUUCUUCCUGCGGUUUAUUCUAUGUUUUAUAUAUUAUCUAAAUAUAUGUAUAUGCUGUGUCAUACUCAUAAUCUGGAAAUGAAUAAAGUGAUAUAUUCCUGGUUUGUAAUGGAAUUCUCGGGUGCCAA	0.553
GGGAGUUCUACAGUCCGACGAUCCUCAGGCACCCCCUCACUGCUCCCUCUUGAAAGGGUUGCUAGCCUUAACUUCAGCUGGUGCGAAACAUCUGACUGUUGUCAGACUCCAGCCAUCUGCUCCUGCAGCGUGCUGGAAUUCUCGGGUGCCAA	0.294
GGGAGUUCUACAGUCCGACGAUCGGGUGGUUUUUCACUGAAAAGGGGGGUACACCUAUAGCUUUCUUGAUGUUCAAUCAAUCAGUCACUGUGUCCCAGACAUAUUCAAUAAACACAGAUUGGUACCACCCAGCUGGAAUUCUCGGGUGCCAA	0.493
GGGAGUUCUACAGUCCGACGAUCCCUAGCCCAGCCUUCCCACUGCCCCAGGAAAAGCUCUUCUCCUGGCCACCUCUGCCCCCCAGCACCUCAAACUUGCAUGGCUGGGCUGUGGCCUCUGCGGCCAGGAAGCCUGGAAUUCUCGGGUGCCAA	7.71
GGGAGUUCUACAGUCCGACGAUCGGUACUAGCUGAGGUUAUUUUAAAAGCAGCAGUGUGCCUACUUUUUGGAGUGUAACCGGGGAGGGAAAUUAUAGCAUGCUUGCAGACAGACCUGCUCUAGCGAGAGCUGAUGGAAUUCUCGGGUGCCAA	0.96
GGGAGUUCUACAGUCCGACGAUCUUCCCGAGAGCAGCAGACAUGGAGGGCCAGACUUUAAAAGCAACGCAAGCAGAUUCGAAGAGCUGUUGCCCUCUUCUAAAAAAGGCUUUUGGAGGCUGUGUUACAUGCAUUGGAAUUCUCGGGUGCCAA	1.85
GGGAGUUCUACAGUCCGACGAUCUCUAUGACUGUGUUGACACGGAGAUUAAGUUCUUUAAGUGAAGUAAGCGUUCCCUUUCCCCUUCUUAUUUAAGACUUCCCACCUUACUAAAUUACCAGCAAAACAAACCAUGGAAUUCUCGGGUGCCAA	0.792
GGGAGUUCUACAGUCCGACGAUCGACUGCAGUCCCCAAGGAGACCCUGCCACAUGCUGGCCCUUUGAGUGAGAAUGCUGCAUCUUUCUACAUAUCUUCAUGAGAAUACUGAGAAUUGGAUUUUCCUUUUCAAAUGGAAUUCUCGGGUGCCAA	1.19
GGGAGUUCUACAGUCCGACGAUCUCAGAGCAAAGUGAUCCAGAAUGCAACAGGAGCUACCUCCUGUAACCACUACAAUGUCUGUCCUUGGGAAGGUAGCAAGACCUGAAGAUUGGAGAUGUCAGGGUCCAUAAUGGAAUUCUCGGGUGCCAA	8.99
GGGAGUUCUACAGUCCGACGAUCAAGGGCAGUCAAGUCCAGUCACCCAUAUUACUCAUCAAUGUUAGACGAAGCCUUGAGCUGAAGGAGGUGCUGUCGGCUAGGCCUCUACUCUGGGUUUCAGAGAGUAGUAUUGGAAUUCUCGGGUGCCAA	1.09
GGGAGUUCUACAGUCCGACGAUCACUUCGCUUGUAUUGUAAAAGGAGGGUAUAUUUGCACUUAUGUAUACUUUGACAGUUUGCCAAGAUAUUUUGAUGUAAGGUUUUUUUUUUUUCAAUAAAAUGUGUAUAACUGGAAUUCUCGGGUGCCAA	2.03

Series 3 — target: CCNA1, cyclin fold, Cln2 fusion (human); technique: yeast growth competition, sequencing; medium: yeast; setting: weak parent motif; baseline: not given; direction: higher = stronger binding
Starting sequence: REV3L docking peptide (human); PPVIIKYIIINRF; partner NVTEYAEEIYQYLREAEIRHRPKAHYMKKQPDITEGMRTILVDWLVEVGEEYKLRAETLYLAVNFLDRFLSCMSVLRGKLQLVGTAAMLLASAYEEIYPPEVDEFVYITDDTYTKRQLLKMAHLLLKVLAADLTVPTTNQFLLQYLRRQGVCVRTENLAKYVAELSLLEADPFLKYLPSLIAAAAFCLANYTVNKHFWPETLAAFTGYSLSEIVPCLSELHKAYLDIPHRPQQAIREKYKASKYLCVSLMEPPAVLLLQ
Change	normalised enrichment score
PPVIIKAIIINRF [Y7A]	0.0978
PPVAIKYIIINRF [I4A]	0.0999
PPVIIKYIIINRA [F13A]	0.706
PPVIIKYIIIARF [N11A]	0.745
PPVIIKYIAINRF [I9A]	0.0711
PPVIIKYIIINAF [R12A]	0.257

Series 4 — technique: RNA Bind-n-Seq; form: RNA; medium: in vitro; concentration: 200 nM; setting: whole 134-nt RNA, ends assumed; added: 150 mM KCl; baseline: input library; direction: higher = stronger binding
Target: Ras GTPase-activating protein-binding protein 1, full length (G3BP1, Homo sapiens, UniProt Q13283)
UniProt Q13283, sequence (whole entry, looked up): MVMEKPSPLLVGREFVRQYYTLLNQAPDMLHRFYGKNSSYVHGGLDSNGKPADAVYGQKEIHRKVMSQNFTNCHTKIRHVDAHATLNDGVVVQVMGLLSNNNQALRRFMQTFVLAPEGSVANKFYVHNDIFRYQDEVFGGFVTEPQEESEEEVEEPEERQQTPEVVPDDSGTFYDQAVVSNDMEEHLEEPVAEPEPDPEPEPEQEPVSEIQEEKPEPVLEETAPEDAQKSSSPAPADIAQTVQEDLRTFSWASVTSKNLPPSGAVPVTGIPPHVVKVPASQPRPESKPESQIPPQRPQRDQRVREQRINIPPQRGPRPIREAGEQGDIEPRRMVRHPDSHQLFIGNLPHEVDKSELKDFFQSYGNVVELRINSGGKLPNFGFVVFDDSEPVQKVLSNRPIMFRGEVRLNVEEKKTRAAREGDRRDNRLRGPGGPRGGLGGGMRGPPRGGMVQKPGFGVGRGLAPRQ
Strand	log2 enrichment
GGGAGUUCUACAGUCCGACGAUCUCAAGUCCUGUGCUACACAUCGUAUGUACCGAAUCGGAGGAAAAAGGUUUUUGGAAAGUAUUAUGUUACGCCGUUCGGAUCUGCACUUCCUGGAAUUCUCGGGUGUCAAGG	-1.05
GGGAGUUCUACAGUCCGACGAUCACCAAACAGGUGGGCAUCUUUGGGAAGUGGGGCAAGGGGGGGAUAGGGAGGGGGGUAACACUUUGGGAACAGGUGGUCCCAGGUCGUUUCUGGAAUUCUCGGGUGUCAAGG	1.3
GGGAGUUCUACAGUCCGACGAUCAAGUCCUGUGCUACACAUCGUAUGUACCGAAUCGGUUUUUGGUUUUUUUGGAAAGGAAAGUAUUAUGUUACGCCGUUCGGAUCUGCACUUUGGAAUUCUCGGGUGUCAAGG	-1.49
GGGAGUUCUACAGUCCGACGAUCGUCCUGUGCUACACAUCGUAUGUACCGAAUCGGGGAAAGGGGUUUUUUUGGGGAGGGGAAAGUAUUAUGUUACGCCGUUCGGAUCUGCACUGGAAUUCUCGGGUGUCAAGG	0.663
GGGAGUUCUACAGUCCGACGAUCUCCUGUGCUACACAUCGUAUGUACCGAAUCGGGGUUUUUUUGGGGAGGGGUUUUUGGGGAAAGUAUUAUGUUACGCCGUUCGGAUCUGCAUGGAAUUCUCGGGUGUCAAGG	0.625
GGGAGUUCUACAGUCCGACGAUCGUCCUGUGCUACACAUCGUAUGUACCGAAUCGGGGUUUUUGGGGUUUGGGGUUUGGGGAAAGUAUUAUGUUACGCCGUUCGGAUCUGCACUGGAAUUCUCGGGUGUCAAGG	0.813
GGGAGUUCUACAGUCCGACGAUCUUGUAUUAAGACAACGCUCCUCGACUUAGAUGCCUUGGCAAGACAUUUGGCUGACUGUAUUCGAAGGUAAAAUUUGAUGUGAAAUUGACAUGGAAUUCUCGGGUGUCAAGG	-0.0644
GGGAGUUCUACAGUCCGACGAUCUGCUAGGACUUGAUGGAUCACUAGUUUUUCUGGUAAGUAAAACUAAUUUUUUUUUUUUUUUUUUGAGACGGAAUCUCACUCUGUCACCCAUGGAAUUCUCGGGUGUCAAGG	1.04
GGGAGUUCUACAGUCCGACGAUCAGUCCUGUGCUACACAUCGUAUGUACCGAAUCGGCCCCCGGGGCCCCCGGGCCCCCGGAAAGUAUUAUGUUACGCCGUUCGGAUCUGCACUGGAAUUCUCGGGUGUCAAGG	-0.792
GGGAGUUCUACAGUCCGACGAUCAAGUCCUGUGCUACACAUCGUAUGUACCGAAUCGGGGAAAGGGAAAGGGGAAAGGGGAAAGUAUUAUGUUACGCCGUUCGGAUCUGCACUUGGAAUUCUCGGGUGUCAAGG	0.257
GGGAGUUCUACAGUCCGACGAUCUCAAGUCCUGUGCUACACAUCGUAUGUACCGAAUCGGGUGGGUUUUUGGGUGGGAAAGUAUUAUGUUACGCCGUUCGGAUCUGCACUUCCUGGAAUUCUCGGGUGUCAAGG	0.306
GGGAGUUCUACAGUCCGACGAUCUGCACUGACUGGUGGUGUCAACCCAUGGCUCAACUGGAAGCACUGUGGAAGAAGAUGGAGGGUGUGGUAAGUCCAUCAGACCUGGGACCGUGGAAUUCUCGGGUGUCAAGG	-0.642
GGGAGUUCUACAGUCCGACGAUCAGUCCUGUGCUACACAUCGUAUGUACCGAAUCGGGCCCCCGGGCCCCCGGGCCCCCGGAAAGUAUUAUGUUACGCCGUUCGGAUCUGCACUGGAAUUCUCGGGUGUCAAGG	-1.04
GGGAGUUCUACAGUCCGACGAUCUCCUGUGCUACACAUCGUAUGUACCGAAUCGGGAAAAAAGGGGAAAAAAGGAAAAAAGGAAAGUAUUAUGUUACGCCGUUCGGAUCUGCAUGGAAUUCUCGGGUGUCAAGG	-0.536

A few entries again (series 1):
Strand	fitted relative affinity
TTAGAACTGAGACTGTATTAGTGCTAG	-0.41 z-score
GAGATGATCCAGTTTTACCTGGTGCTA	0.282 z-score
TCAGTTTTCTGGTTCCCACTGTGCTAG	1.83 z-score
TTAGATTTCAGTATCGCTTAGTGCTAG	2.43 z-score
